Measurements from different studies.
Numbers after ± are the reported error.

Structure (SMILES)	test	test system	setting	scale	endpoint	value
c1ccc(C2(CCNC3CCC4(SCCS4)c4ccccc43)CCOC3(CCCC3)C2)nc1 (stereo not drawn)	–	mice	subcutaneous, 0.1 mg/kg	–	AUC(0-24h)	0.0189 µg·h/mL
CCCCCCCCCn1cc(C(N)(CO)CO)nn1	–	APP/PS1 mouse	oral, up to 10 mg/kg	–	survival	no effect
O=P1(NCCCl)NCCCO1 (stereo not drawn)	–	rat, plasma	intravenous, 10 mg/kg, added: ketoconazole 40 mg/kg oral 50 min before	–	Cmax	41.1 ± 11.3 ng/mL
C[C@@H](O)[C@H](NC(=O)[C@H](CCC(=O)O)NC(=O)[C@H](Cc1ccccc1)NC(=O)[C@H](Cc1c[nH]c2ccccc12)NC(=O)[C@H](CCCCN)NC(=O)[C@H](CCCCN)NC(=O)[C@H](CCCCN)NC(=S)Nc1ccc2c(c1)C(=O)OC21c2ccc(O)cc2Oc2cc(O)ccc21)C(=O)N[C@@H](Cc1c[nH]c2ccccc12)C(=O)N[C@@H](Cc1ccccc1)C(=O)N[C@H](C(=O)N[C@@H](CCC(=O)O)C(=O)N[C@@H](Cc1c[nH]c2ccccc12)C(=O)N1CCC[C@H]1C(=O)N[C@@H](CCCCN)C(=O)N[C@@H](CCCCN)C(=O)N[C@@H](CCCCN)C(=O)N[C@@H](CCCCN)C(=O)O)[C@@H](C)O	–	gelatin hydrogel 50 mg/mL	56.6 µg loaded, 72 h, no cross-linker, added: PBS	–	peptide release	32.7 µg
CC1N=C(c2ccccc2F)c2cc(Br)ccc2-n2cnc(C(=O)OC3OC(CO)C(O)C(O)C3O)c21 (stereo not drawn)	LC-MS/MS	Swiss Webster mouse, female, urine	oral, 750 µg parent drug, 0 to 24 h	–	cumulative excretion	2.5 ± 0.1%
O.[C-]#[O+].[C-]#[O+].[C-]#[O+].[Re+].c1ccc(-c2ccccn2)nc1	RP-HPLC C18 column, item: MeCN adduct	MeCN:water 40:60, 0.1% TFA	isocratic elution	–	capacity factor	3.3
O=C(c1ccc(F)cc1)C1CCN(C2Cc3c(cccc3OCC[18F])CC2O)CC1 (single isomer, unassigned; (-))	–	Sprague-Dawley rat, male, lung	intravenous, dose not given, 5 min	–	tissue uptake	2.25 ± 0.415 %ID/g
CCCCCCCCNP(=O)(Oc1ccccc1)O[C@@H]1O[C@H](CO)[C@@H](O)[C@H](O)[C@H]1F (stereo partly drawn)	–	phosphate buffer with DMSO	100 µM, pH 6.8, 37 °C	–	hydrolysis rate constant	0.0014 min⁻¹
CC(C)C[C@H](NC(=O)[C@H](CCCCN)NC(=O)[C@H](CCC(=O)O)NC(=O)[C@H](C)NC(=O)[C@@H](NC(=O)[C@H](CCCCN)NC(=O)[C@H](CC(=O)O)NC(=O)[C@H](Cc1ccc(O)cc1)NC(=O)[C@H](Cc1ccccc1)NC(=O)[C@H](C)NC(=O)[C@H](CCCCN)NC(=O)[C@H](CC(C)C)NC(=O)[C@H](Cc1c[nH]c2ccccc12)NC(=O)[C@@H](N)CC(=O)O)C(C)C)C(=O)N[C@@H](CCCCN)C(=O)N[C@@H](CCC(=O)O)C(=O)N[C@@H](C)C(=O)N[C@@H](Cc1ccccc1)C(=O)N1CCC[C@H]1C(=O)N[C@@H](CC(=O)O)C(=O)N[C@@H](Cc1c[nH]c2ccccc12)C(=O)N[C@@H](C)C(=O)N[C@@H](CCCCN)C(=O)N[C@@H](C)C(=O)N[C@@H](C)C(=O)N[C@@H](Cc1ccc(O)cc1)C(=O)N[C@@H](CC(=O)O)C(=O)N[C@@H](CCCCN)C(=O)N[C@@H](C)C(=O)N[C@@H](C)C(=O)N[C@@H](CCC(=O)O)C(=O)N[C@@H](CCCCN)C(=O)N[C@@H](C)C(=O)N[C@@H](CCCCN)C(=O)N[C@@H](CCC(=O)O)C(=O)N[C@@H](C)C(=O)N[C@@H](C)C(=O)O	–	cynomolgus monkey female, plasma	intravenous infusion, 75 mg/kg every other day, day 27	–	AUC(0-inf)	7650 µg·h/mL
CC(C)C[C@@H](N)C(=O)NCC(=O)N[C@H](C)C(=O)N[C@H](CO)C(=O)N[C@H](Cc1c[nH]c2ccccc12)C(=O)N[C@H](Cc1c[nH]cn1)C(=O)N[C@H](CCCNC(=N)N)C(=O)N1CCC[C@@H]1C(=O)N[C@H](CC(=O)O)C(=O)N[C@H](CCCCN)C(=O)N[C@H](CS)C(=O)N[C@H](CS)C(=O)N[C@H](CC(C)C)C(=O)NCC(=O)N[C@H](Cc1ccc(O)cc1)C(=O)N[C@H](CCC(N)=O)C(=O)N[C@H](CCCCN)C(=O)N[C@H](CCCNC(=N)N)C(=O)N1CCC[C@@H]1C(=O)N[C@H](CC(C)C)C(=O)N1CCC[C@@H]1C(N)=O	LC-MS/MS	rat plasma	500 ng/mL, 30 days, -80 °C, storage	relative to: nominal	accuracy	112%
CC[C@@H]1C[C@]1(NC(=O)[C@@H]1C[C@@]2(CN1C(=O)[C@@H](NC(=O)[C@@H](NC(=O)[C@@H]1CCCCN1C(C)C)C1CCCCC1)C(C)(C)C)C(C)(C)C21CCC1)C(=O)NS(=O)(=O)N1CCCC1	–	human, plasma	oral, dose not given, added: ritonavir	–	terminal half-life	~11.5 h
CCCCCCCC(=O)NCCCC[C@H](NC(=O)[C@H](Cc1ccccc1)NC(=O)[C@@H](CCCNC(=N)N)NC(=O)[C@@H](N)Cc1ccc(O)cc1)C(N)=O	–	mouse, CD-1, male, brain	intravenous, 3 mg/kg	–	MRT	2.42 h
[11CH3]n1c(=O)n(CCCO)c(=O)c2c1nc(Oc1cccc(OC(F)(F)F)c1)n2Cc1ccc(Cl)cc1	ex vivo biodistribution	Sprague Dawley rat, pancreas	5 min post injection	–	tracer uptake	1.72 ± 0.38 %ID/g
CC[C@@H](C)[C@H](NC(=O)[C@H](C)NC(=O)[C@H](CCCCN)NC(=O)[C@H](CC(C)C)NC(=O)[C@H](C)NC(=O)[C@@H](NC(=O)[C@H](Cc1c[nH]cn1)NC(=O)[C@H](CC(C)C)NC(=O)[C@@H](NC(=O)[C@@H](NC(=O)[C@H](CCCCN)NC(=O)[C@H](CCCCN)NC(=O)[C@H](C)NC(=O)[C@H](CO)NC(=O)[C@H](CCCCN)NC(=O)[C@H](Cc1ccccc1)NC(=O)[C@@H](NC(=O)[C@H](CCCCN)NC(=O)[C@H](CC(C)C)NC(=O)[C@H](Cc1ccccc1)NC(=O)[C@H](CO)NC(=O)[C@H](CCCCN)NC(=O)[C@H](Cc1c[nH]c2ccccc12)NC(=O)[C@H](CCCCN)NC(C)=O)[C@@H](C)O)[C@@H](C)O)C(C)C)[C@@H](C)O)C(=O)N[C@@H](CO)C(=O)N[C@@H](CO)C(N)=O	circular dichroism at 222 nm	buffer with 50% TFE	75 µM, 65 °C	–	mean residue ellipticity	-20400 deg cm² dmol⁻¹
COC(=O)C[C@H](NC(=O)[C@H](C)NC(=O)[C@@H](NC(=O)[C@H](CC(=O)OC)NC(=O)[C@@H](NC(=O)c1ccc2ccccc2n1)C(C)C)C(C)C)C(=O)COc1c(F)cccc1F	–	rat pups	1 mg/kg, 1 h	–	core body temperature	36.4 ± 0.67 °C
N#CC1(c2ccc3c(N)ncnn23)OC(COP(=O)(O)OP(=O)(O)OP(=O)(O)O)C(O)C1O (stereo not drawn)	LC-MS/MS	CD-1 mouse, lung	oral, 100 mg/kg of remdesivir	–	Cmax	151 nmol/kg
CC(C)(CCCC/C=C/CCCCCC(C)(C)C(=O)O)C(=O)O	–	beagle dog, plasma	360 mg/kg, NOAEL dose, long-term GLP toxicity	–	Cmax	570000 ng/mL
COc1cc2c3c(c4cc(OC)c(OC)cc4c2cc1OC)C(=O)N1CCCC1C3 (stereo not drawn)	–	swine cells	24 (unit not given)	–	CC50	> 100 µM
CC[C@H](C)[C@H](NC(=O)CNC(=O)[C@H](CSCC(N)=O)NC(=O)[C@@H](NC(=O)CNC(=O)[C@H](CCCNC(=N)N)NC(=O)[C@@H](NC(=O)[C@H](CCCNC(=N)N)NC(=O)[C@H](CCC(=O)O)NC(=O)CNC(=O)[C@H](CCCNC(=N)N)NC(=O)[C@H](CCCCN)NC(=O)[C@H](CSCC(N)=O)NC(=O)[C@H](Cc1c[nH]cn1)NC(=O)CNC(=O)[C@H](CCCCN)NC(=O)[C@H](CCCNC(=N)N)NC(=O)[C@H](CSCC(N)=O)NC(=O)[C@H](Cc1ccc(O)cc1)NC(=O)[C@@H](N)CSCC(N)=O)C(C)C)[C@@H](C)O)C(=O)N[C@@H](CCCNC(=N)N)C(=O)N[C@@H](Cc1ccccc1)C(=O)N[C@@H](CC(C)C)C(=O)N[C@@H](Cc1ccc(O)cc1)C(=O)N[C@@H](CSCC(N)=O)C(=O)N[C@@H](CSCC(N)=O)C(=O)N1CCC[C@H]1C(=O)N[C@@H](CCCNC(=N)N)C(=O)N[C@@H](CCCNC(=N)N)C(=O)NCC(=O)N[C@@H](CC(C)C)C(=O)N[C@@H](CC(C)C)C(=O)NO	–	100% human serum	27 µM, 37 °C, heat-inactivated serum	–	onset of degradation	2 min
CN(C)C(CNC(=O)Nc1cc(C(F)(F)F)ccc1N1CCOCC1)c1ccncc1 (stereo not drawn)	–	mouse, serum	intraperitoneal, 360 mg/kg single dose	–	serum potassium	9.1 mmol/L
CCNc1cc2[o+]c3cc(NCC)c(C)cc3c(-c3ccccc3C(=O)OCCOCC[18F])c2cc1C	–	rat, heart	30 min	–	tissue uptake	1.32 ± 0.06 %ID/g
COc1cc(NC(=O)C(=O)c2c(C)n(Cc3ccc(Cl)cc3)c3ccc(C)cc23)ccn1	–	cynomolgus monkey, plasma	oral, 10 mg/kg	–	AUC(0-inf)	3.39 µg·h/mL
CC[C@H](C)C(=O)N1CCC(NC(=O)Nc2ccc(OC(F)(F)F)c(F)c2)CC1	–	healthy volunteers	oral, 16 mg single dose	–	subjects with headache TEAE	0%
CCCCCCCCCCCCC(=O)O.O=C1CCCC2C3CCCN4CCCC(CN12)C34 (stereo not drawn)	conductometry	water	298.15 K	–	limiting molar conductivity	42.52 ± 0.09 S cm²/mol
CSCC[C@H](NC(=O)CNC(=O)[C@H](CC(=O)O)NC(=O)[C@@H](NC(=O)[C@@H](NC(=O)[C@@H](NC(=O)CNC(=O)[C@H](CCC(=O)O)NC(=O)[C@H](CCSC)NC(=O)[C@H](CC(=O)O)NC(=O)[C@H](C)NC(=O)[C@H](C)NC(=O)[C@@H](NC(=O)[C@H](CO)NC(=O)[C@@H](N)CC(C)C)[C@@H](C)O)C(C)C)C(C)C)[C@@H](C)O)C(=O)N[C@@H](C)C(=O)N[C@@H](CO)C(=O)NCC(=O)N[C@@H](CC(C)C)C(=O)N[C@@H](CC(=O)O)C(=O)N[C@@H](CCCCN)C(=O)N[C@@H](CC(=O)O)C(=O)N[C@@H](Cc1ccc(O)cc1)C(=O)N[C@@H](CC(C)C)C(=O)N[C@@H](CCCCN)C(=O)N1CCC[C@H]1C(=O)N[C@@H](CC(=O)O)C(=O)N[C@@H](CC(=O)O)C(=O)O	–	male CD-1 mouse, serum	intravenous, 480 mg/kg	–	Vd	4.08 L/kg
COC(=O)C[C@](O)(CCCC(C)(C)OC(C)=O)C(=O)O[C@@H]1C(OC)=C[C@]23CCCN2CCc2cc4c(cc2[C@H]13)OCO4	–	CD1 mouse, esophagus	subcutaneous, 1 mg/kg, 0.5 h	–	concentration	68.3 ng/mL
C[C@@H](O)[C@H](NC(=O)[C@H](CCCCN)NC(=O)[C@H](Cc1c[nH]c2ccccc12)NC(=O)CN)C(=O)N[C@@H](CCCNC(=N)N)C(=O)NC(C)(C)C(=O)N[C@@H](CCCNC(=N)N)C(=O)NC(C)(C)C(=O)N[C@H](C(=O)N[C@@H](CO)C(=O)N[C@@H](Cc1c[nH]cn1)C(=O)N[C@@H](Cc1ccc(O)cc1)C(=O)NCC(=O)O)[C@@H](C)O	–	C57BL/6 mouse, blood	intravenous, 50 mg/kg, 10 h	–	mean corpuscular haemoglobin	11.1 to 12.7 pg
CC[C@H](C)[C@H](NC(=O)CNC(=O)[C@H](Cc1ccccc1)NC(=O)[C@H](CCCCN)NC(=O)[C@H](CCCCN)NC(=O)[C@H](CCCNC(=N)N)NC(=O)[C@H](CCCNC(=N)N)NC(=O)[C@H](CCCNC(=N)N)NC(=O)[C@H](CCC(N)=O)NC(=O)[C@H](CCCNC(=N)N)NC(=O)[C@H](CCCNC(=N)N)NC(=O)[C@H](CCCCN)NC(=O)[C@H](CCCCN)NC(=O)[C@H](CCCNC(=N)N)NC(=O)CNC(=O)[C@@H](N)Cc1ccc(O)cc1)C(=O)N[C@H](C(=O)N[C@@H](CC(N)=O)C(=O)N[C@@H](CO)C(=O)N[C@@H](CCC(N)=O)C(=O)N[C@@H](CC(C)C)C(=O)N[C@@H](CCCCN)C(=O)N1CCC[C@H]1C(=O)O)[C@@H](C)O	derivative UV-vis spectrophotometry	DMPC:Chol large unilamellar vesicles vs PBS	30 min, pH 7.4, 37 °C, lipid ratio 85:15	–	partition coefficient Kp	1280 ± 91
C[C@@H]1CC[C@H]2[C@@H](C)CO[C@@H]3O[C@@]4(C)CC[C@@H]1[C@]32OO4	item: compound	rat, plasma	2.00 ng/mL spiked, 30 days, long-term storage at -80 °C	–	measured concentration	2.04 ± 0.05 ng/mL
CC(C)[C@H](NC(=O)CNC(=O)[C@H](CCC(N)=O)NC(=O)[C@H](C)N)C(=O)O	Probably drug-related	human	10 mg/kg, 3 days, thrice daily dosing	–	subjects with adverse events	0%

Excerpt of the above:
Structure (SMILES)	test	test system	setting	scale	endpoint	value
CC1N=C(c2ccccc2F)c2cc(Br)ccc2-n2cnc(C(=O)OC3OC(CO)C(O)C(O)C3O)c21 (stereo not drawn)	LC-MS/MS	Swiss Webster mouse, female, urine	oral, 750 µg parent drug, 0 to 24 h	–	cumulative excretion	2.5 ± 0.1%
CC[C@H](C)[C@H](NC(=O)CNC(=O)[C@H](Cc1ccccc1)NC(=O)[C@H](CCCCN)NC(=O)[C@H](CCCCN)NC(=O)[C@H](CCCNC(=N)N)NC(=O)[C@H](CCCNC(=N)N)NC(=O)[C@H](CCCNC(=N)N)NC(=O)[C@H](CCC(N)=O)NC(=O)[C@H](CCCNC(=N)N)NC(=O)[C@H](CCCNC(=N)N)NC(=O)[C@H](CCCCN)NC(=O)[C@H](CCCCN)NC(=O)[C@H](CCCNC(=N)N)NC(=O)CNC(=O)[C@@H](N)Cc1ccc(O)cc1)C(=O)N[C@H](C(=O)N[C@@H](CC(N)=O)C(=O)N[C@@H](CO)C(=O)N[C@@H](CCC(N)=O)C(=O)N[C@@H](CC(C)C)C(=O)N[C@@H](CCCCN)C(=O)N1CCC[C@H]1C(=O)O)[C@@H](C)O	derivative UV-vis spectrophotometry	DMPC:Chol large unilamellar vesicles vs PBS	30 min, pH 7.4, 37 °C, lipid ratio 85:15	–	partition coefficient Kp	1280 ± 91
